# Assay results collected from several papers.
# Every numbered part comes from another study and shows a few of its results, in no order. Positions count from the first letter of the parent shown.

# Study 1 — technique: RNA Bind-n-Seq; form: RNA; medium: in vitro; concentration: 365 nM; reference: no-protein control; reading: higher = stronger binding
# Target: RNA binding protein fox-1 homolog 2, RRM domain, GST-SBP tag (RBFOX2, Homo sapiens, UniProt O43251-10, residues 100-194)
# Setting: natural RNA segment, single round, ends assumed
# Shared flanks, not repeated: GGGAGUUCUACAGUCCGACGAUC … UGGAAUUCUCGGGUGCCAA
Strand,RBNS enrichment (R)
CGGCAGACGCCGGUAGAUAGUCCAGAUGACACAGCCCUCAGUGAGAGUGCCAACCAAGCCUUCCUGGGCUUUACAUAUGUGGCACCUUCUGUCCUGGACAGCAUCAAAGA,0.855
GGACAAAGUUGGGUUGAUAGGAUAUUUUAGAUUCAUUUUACCUUUGACAAGGGCAGGCCUUGAAUUGGGAGCAGCAGCCACCUGGCCUCACUCUGGCCACAGGUGACACU,0.648
CUCAGGGCCCCCACAGGGGAAGGACCCAGCUCCUGUACAUACAUUUUAUUGCAUGCACUGUGACCUUGGGGGGAGACAAAGAGGGGGAUUGUACCCCCACCCCCUGCACC,0.956
GAGCAGCUCGCUGGCCAGAAGGGGAUGGGGGCAUCCCUGUGCCUCACUCAGCUCCUGCUGCUCUUAGGGAAAGGAGGCCUGGGUCAAGCCAGCAUCCCCUUGGUAAAGAC,0.454
AUCACACCACUGCACUCCAACCUGGACAACAGAGCGAGACUCCAUCUCAAAAAAAAAAAAAAAUUGUGUUGCCUCAUACGAAAUGUAUUUGGUUUUGUUGGAGAGUGUCA,0.404
UUUUUAAACUCUUAUUUAAGAGUAAGUUGAGUUGAACUGAAUCUUCCUUGUCUUAGUAACAUUGUACAAAUAGUGGCUUAUUUUUAAGUUGUAAUGCCUCCUGAUGGAUA,0.883
CAGGAGGAUGUGCCUAGGUUAUAUGCAAAUACUGUGCCAUUUUAUAUCAGGAACUUGAGCAUCUGCAGAUAUUGGUAUCGGAGGGCGGUCCUGGAACCAAGCAUCCACGG,0.694
UCUGCCCACCCCCCACCCUGUCCCUCCGGGGGUGAACCAGCCAGGCUGCACUACAAUGUCCACAGGCAAGAGGCCCCCAGGCCACCAGCAAAUGUCCCGCCCCUGGGGAC,1.08

# Study 2 — technique: protein-binding microarray; form: double-stranded DNA, one strand shown; medium: in vitro; concentration: 250 nM; setting: 60-bp whole probe; with: salmon DNA 0.4 mg/ml; reference: random background probes; reading: higher = stronger binding; shared flanks, not repeated: GCCTAGCAC … GTCTTGATTCGCTTGACGCTGCTG
# Target: Interferon regulatory factor 7, full length, phosphomimetic (IRF7, Homo sapiens, UniProt Q92985, residues 1-503, S101K/S471D/S472D/S475D/S476D/S477D/S483D/S484D/S487D)
# Residues (chain): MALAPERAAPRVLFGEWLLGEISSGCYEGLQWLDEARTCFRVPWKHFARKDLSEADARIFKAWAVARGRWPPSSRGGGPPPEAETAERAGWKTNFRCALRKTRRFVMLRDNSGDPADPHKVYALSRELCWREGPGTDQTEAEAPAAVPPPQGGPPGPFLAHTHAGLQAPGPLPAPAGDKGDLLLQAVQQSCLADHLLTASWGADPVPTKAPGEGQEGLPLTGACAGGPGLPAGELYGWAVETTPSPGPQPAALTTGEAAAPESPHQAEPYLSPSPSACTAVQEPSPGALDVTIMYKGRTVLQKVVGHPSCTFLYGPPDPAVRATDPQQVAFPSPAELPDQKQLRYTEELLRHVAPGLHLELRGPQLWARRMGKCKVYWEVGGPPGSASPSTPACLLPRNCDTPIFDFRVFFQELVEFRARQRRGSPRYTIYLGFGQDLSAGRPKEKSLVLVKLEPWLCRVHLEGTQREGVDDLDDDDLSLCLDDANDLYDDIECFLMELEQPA
Strand,log fluorescence [z-score]
ATGACAATGATGTTTTGAGTTGTGCTA,-0.301
GACGGTTTCGACTATCGGGCCGTGCTA,5.13
GACGAACTGAGTATTGAGACGTGCTAG,-0.161
GACGATTCCAGTTTAGAGACGTGCTAG,0.526
TCATTTCTCAACCATTTTACTGTGCTA,2.16
TCACTTTCCACTTTCTTACTGTGCTAG,3.55
TTAGAACTGGGGTTTAGATTAGTGCTA,-0.539
TGTCTTTTCATTTTCTTTAAGTGCTAG,2.08
TTAGGACTGGGACTGGGTTTGTGCTAG,-0.184
GACGGACTGCTTCTCCTGATGTGCTAG,-0.455
TTAGGTTTCGGCTCCGGTTAGTGCTAG,3.54
TTAGGTATCGGTCTCGGTTAGTGCTAG,2.17
GACGGTATCGGACTGGAGACGTGCTAG,-0.542
CGCCCACTCATGCCTCTTAAGGTGCTA,0.279
TTAGATCTCAGTATCGATCAGTGCTAG,0.319
GACGGTCTCGGTAACGGGACGTGCTAG,-0.038
GACGATCACAGTCTCGAGACGTGCTAG,0.279
GACCATCTCATATAAATAGGCGTGCTA,0.348
GACGATTACGGGTTTCGAGACGTGCTA,2.85

# Study 3 — technique: RNA Bind-n-Seq; form: RNA; medium: in vitro; concentration: 1 µM; setting: whole 134-nt RNA, ends assumed; with: 150 mM KCl; reference: input library; reading: higher = stronger binding
# Target: Ras GTPase-activating protein-binding protein 1, RRM domain (G3BP1, Homo sapiens, UniProt Q13283)
# Chain of UniProt Q13283 (whole entry, looked up): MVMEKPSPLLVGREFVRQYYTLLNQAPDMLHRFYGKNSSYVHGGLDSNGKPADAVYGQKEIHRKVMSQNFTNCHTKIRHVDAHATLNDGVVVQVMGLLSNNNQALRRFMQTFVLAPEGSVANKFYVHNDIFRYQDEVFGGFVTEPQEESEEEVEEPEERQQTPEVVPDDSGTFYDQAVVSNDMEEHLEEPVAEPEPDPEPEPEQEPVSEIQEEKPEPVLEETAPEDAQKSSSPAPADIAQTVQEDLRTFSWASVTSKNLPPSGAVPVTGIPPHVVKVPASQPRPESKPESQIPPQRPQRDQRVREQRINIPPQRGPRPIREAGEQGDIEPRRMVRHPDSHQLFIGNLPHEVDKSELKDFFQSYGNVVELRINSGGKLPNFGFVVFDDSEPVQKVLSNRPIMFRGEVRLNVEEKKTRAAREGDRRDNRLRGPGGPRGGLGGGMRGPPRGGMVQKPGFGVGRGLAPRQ
# Shared flanks, not repeated: GGGAGUUCUACAGUCCGACGAUC … UGGAAUUCUCGGGUGUCAAGG
Strand,log2 enrichment
GUCCUGUGCUACACAUCGUAUGUACCGAAUCAAACCCAAACCCCCCCAAAUUUUUAAAAAAGUAUUAUGUUACGCCGUUCGGAUCUGCAC,-0.164
UCCUGUGCUACACAUCGUAUGUACCGAAUCGGCCCCCCCGGCCCCCCCGGCCCCCCCGGAAAGUAUUAUGUUACGCCGUUCGGAUCUGCA,-0.749
AAGUCCUGUGCUACACAUCGUAUGUACCGAAUCGGGUUUUUGGUUUUUGGUUUUUGGAAAGUAUUAUGUUACGCCGUUCGGAUCUGCACU,-0.11
ACCAUGCAGGUGGGCAUCUUUGGGAAGUGGGGCAAGGGGGGGAUAGGGAGGGGGGUAACACUUUGGGAACAGGUGGUCCCAGGUCUUUUC,0.875
CUCAAGUCCUGUGCUACACAUCGUAUGUACCGAAUCGGGAGGGUGGGUUUGGGAAAGUAUUAUGUUACGCCGUUCGGAUCUGCACUUCCA,0.772
GUCCUGUGCUACACAUCGUAUGUACCGAAUCGGGGCCCCGGGGCCCCGGGGCCCCGGGAAAGUAUUAUGUUACGCCGUUCGGAUCUGCAC,0.141
UCCUGUGCUACACAUCGUAUGUACCGAAUCAAACCCCCAAAUUUUUAAACCCCCCCAAAAAAGUAUUAUGUUACGCCGUUCGGAUCUGCA,-0.15
CUGUGCUACACAUCGUAUGUACCGAAUCGGGGAAAAAAAGGGGAAAAAAAGGAAAAAAAGGAAAGUAUUAUGUUACGCCGUUCGGAUCUG,0.0892
AAGUCCUGUGCUACACAUCGUAUGUACCGAAUCGGGAGGGUUUGGGAAAAAAAGGGAAAGUAUUAUGUUACGCCGUUCGGAUCUGCACUU,0.332

# Study 4 — target: CCNE1, cyclin fold, Cln2 fusion (human); technique: yeast growth competition, sequencing; medium: yeast; setting: weak parent motif; reference: not given; reading: higher = stronger binding
# Starting sequence: MASTL docking peptide (human); PMIAKNLMCELDE
Substitution,normalised enrichment score
PMIAKWLMCELDE [N6W],0.191
PMIAKNLMCELIE [D12I],-0.443
PMIAKNLACELDE [M8A],-0.0453
PMIAKNLMIELDE [C9I],-0.121
PCIAKNLMCELDE [M2C],-0.196
PMIAKNLPCELDE [M8P],-0.137
PMIAKNLMCENDE [L11N],-0.177
PMIAKNSMCELDE [L7S],-0.0607
PMIAHNLMCELDE [K5H],-0.438
PMIAKILMCELDE [N6I],0.532
PMIAKNLMCEWDE [L11W],0.133
PMISKNLMCELDE [A4S],-0.0816
PMIAANLMCELDE [K5A],-0.0662
PMIAKNKMCELDE [L7K],0.25
PMIAKNLMCQLDE [E10Q],0.0776
PMIAKNLMCNLDE [E10N],0.232
PMIAKNLMCYLDE [E10Y],0.273
PMGAKNLMCELDE [I3G],0.178
PMIAKNLMLELDE [C9L],0.0499
PLIAKNLMCELDE [M2L],0.177
PMIAKNLYCELDE [M8Y],-0.274
PMIAKNLMCELHE [D12H],0.215
PMIAKHLMCELDE [N6H],-0.151
PMIAGNLMCELDE [K5G],-0.253
PMIEKNLMCELDE [A4E],-0.0637

# Repeated from above (study 4):
Substitution,normalised enrichment score
PMIAKNLMCNLDE [E10N],0.232
PMIAKNLMCYLDE [E10Y],0.273
PMGAKNLMCELDE [I3G],0.178
PMIAKNLMLELDE [C9L],0.0499
PLIAKNLMCELDE [M2L],0.177
PMIAKNLYCELDE [M8Y],-0.274
PMIAKNLMCELHE [D12H],0.215
